# Experimental data gathered from unrelated publications.
# Compare with care: the assays were run in different laboratories. Numbers after ± are the reported error.
Compound,test,test system,setting,how to read,quantity,result
Cc1nc(-c2ccc(OCC(C)C)c(C#N)c2)sc1C(=O)O,,"human adults, plasma","oral, 10 to 160 mg once daily, fed, PopPK post hoc",,Tmax at steady state,1.46 ± 0.84 h
CNc1nc(Nc2ccc(-n3cnc(C)n3)c(OC)c2)nc2c1CC[C@H]2c1ccc(F)cc1,,"healthy humans, both sexes, plasma","oral, 300 mg single dose, high-fat meal",relative to: fasted,Tmax prolongation,1.5 h
O=C(c1cccnc1-c1ccncc1)N1CCC(O)(Cc2ccccc2)CC1,,"healthy human, plasma","oral, 300 mg once daily, day 1",,tmax,0.42 h
CNC(=O)c1cccc2cc(Oc3ccnc4cc(OCC5(N)CC5)c(OC)cc34)ccc12,,"human patients intermittent arm, plasma","oral, 10 mg, single dose cycle 1 day 1",,Tmax median,2.02 h
C=CC(=O)Nc1cc(Nc2ncc(C(=O)OC(C)C)c(-c3cn(C)c4ccccc34)n2)c(OC)cc1N(C)CCN(C)C,,humans,"oral, 160 mg, together with: rifampin",relative to: compound alone,Tmax difference,2 h
CS(=O)(=O)Nc1ccc(C(=O)O[C@@H](Cc2c(Cl)c[n+]([O-])cc2Cl)c2ccc(OC(F)F)c(OCC3CC3)c2)cc1OCC1CC1,,"human, plasma","inhaled, 200 µg single dose, single-dose dry powder inhaler",,tmax,1.03 h
Cc1nc(-c2ccc(OCC(C)C)c(C#N)c2)sc1C(=O)O,,"human, plasma","oral, day 7, median, together with: verinurad",,tmax,1.52 h
CC(C)(C)OC[C@@H]1C(=O)NCCN1C(=O)C[C@H](N)Cc1cc(F)c(F)cc1F,,human,"20 mg once daily, day 10, median",,Tmax at steady state,4 h
CNC(=O)c1ccc(-c2cnc3ncc(Cc4ccc5ncccc5c4)n3n2)cc1F,,"human, normal and hepatically impaired, plasma","oral, 200 mg single dose",,Tmax (median),1 to 1.5 h
COc1ccc2nc([S@@+]([O-])Cc3ncc(C)c(OC)c3C)[nH]c2c1,HPLC,"human CYP2C19 ultra-rapid metabolizers, plasma","oral, 40 mg/day, day 5, pantoprazole",,Tmax,0.17 ± 0.29 h
Cc1c(Cl)c(C)[n+]([O-])c(Cl)c1-c1noc(-c2cc(O)c(O)c([N+](=O)[O-])c2)n1,LC-MS/MS,"healthy male human, fasted, plasma","oral, 25 mg single dose, capsule",,Tmax (median),1.5 h
COc1ccnc(C[S+]([O-])c2nc3ccc(OC(F)F)cc3[nH]2)c1OC (stereo not drawn),HPLC,"human CYP2C19 intermediate metabolizers, plasma","oral, 40 mg/day, day 5, esomeprazole",,Tmax,4 h
CC[C@H](C)[C@H](NC(=O)[C@H](CC(C)C)NC(=O)[C@H](Cc1c[nH]c2ccccc12)NC(=O)[C@H](C)NC(=O)[C@@H](NC(=O)[C@H](Cc1ccccc1)NC(=O)[C@H](CC(=O)O)NC(=O)[C@H](CCCNC(=N)N)NC(=O)[C@H](C)NC(=O)[C@H](C)NC(=O)[C@H](CC(C)C)NC(=O)[C@H](C)NC(=O)[C@H](CC(=O)O)NC(=O)[C@H](CC(C)C)NC(=O)[C@@H](NC(=O)[C@@H](NC(=O)[C@H](C)NC(=O)[C@H](CC(C)C)NC(=O)[C@H](CCC(=O)O)NC(=O)[C@H](CO)NC(=O)[C@H](CO)NC(=O)[C@H](Cc1ccccc1)NC(=O)[C@@H](NC(=O)CNC(=O)[C@H](CCC(=O)O)NC(=O)CNC(=O)[C@@H](N)Cc1cnc[nH]1)[C@@H](C)O)[C@@H](C)O)[C@@H](C)CC)[C@@H](C)CC)C(=O)N[C@@H](C)C(=O)N[C@H](C(=O)N[C@@H](CCCCN)C(=O)N[C@H](C(=O)N[C@H](C(=O)N[C@@H](CC(=O)O)C(=O)N[C@@H](CCCCN)C(=O)N[C@@H](CCCCN)C(=O)N[C@@H](CCCCN)C(=O)N[C@@H](CCCCN)C(=O)N[C@@H](CCCCN)C(=O)N[C@@H](CCCCN)C(N)=O)[C@@H](C)O)[C@@H](C)CC)[C@@H](C)O,immunoaffinity LC-MS/MS,"healthy human subjects, plasma","intravenous infusion, 1 mg single dose, infused over 15 min",,tmax,0.42 h
CCOc1c([C@H](C)n2nc(C)c3c(N)ncnc32)cc(Cl)c(F)c1[C@@H]1CNC(=O)C1,,"healthy fasted humans, plasma","oral, 20 mg",,Tmax median,1 h
CNC(=O)c1ccc(-c2cnc3ncc(Cc4ccc5ncccc5c4)n3n2)cc1F,,"healthy human subjects, plasma","oral, 200 mg, median, together with: itraconazole 200 mg/day",,tmax,2 h
CC(C)C[C@H](NC(=O)[C@H](CCc1ccccc1)NC(=O)CN1CCOCC1)C(=O)N[C@@H](Cc1ccccc1)C(=O)N[C@@H](CC(C)C)C(=O)[C@@]1(C)CO1,,"human patients, plasma","intravenous infusion 10 min, 27 mg/m^2, day 16 of cycle 1, KRd regimen",,Tmax (median),0.15 h
CCOc1cc([C@@H](CS(C)(=O)=O)N2C(=O)c3cccc(NC(C)=O)c3C2=O)ccc1OC,,"human, plasma","oral, 30 mg twice daily, steady state, median, together with: methotrexate",,tmax,2 h
CNCc1ccc(-c2[nH]c3cc(F)cc4c3c2CCNC4=O)cc1,,"human patients, plasma","oral, 840 mg twice daily, day 15, steady state, median",,Tmax,4.04 h
